Published values pooled from the literature.
Protocols differ between the studies behind these lines.
Organism: Klebsiella pneumoniae

| Structure (SMILES) | test | system | setting | MIC |
| --- | --- | --- | --- | --- |
| CC[C@H](C)[C@H](NC(=O)[C@H](CC(C)C)NC(=O)[C@H](CCCCN)NC(=O)[C@H](CC(C)C)NC(=O)CNC(=O)[C@@H](NC(=O)[C@H](CO)NC(=O)[C@@H](NC(=O)[C@@H](NC(=O)[C@H](CCC(N)=O)NC(=O)[C@H](Cc1c[nH]c2ccccc12)NC(=O)[C@H](CCCNC(=N)N)NC(=O)[C@H](CC(N)=O)NC(=O)[C@H](CCCNC(=N)N)NC(=O)[C@H](CCCNC(=N)N)NC(=O)[C@@H](NC(=O)[C@H](Cc1ccccc1)NC(=O)[C@H](CCCNC(=N)N)NC(=O)CNC(=O)[C@H](C)NC(=O)[C@H](CCCNC(=N)N)NC(=O)[C@H](CCCNC(=N)N)NC(=O)[C@H](CCCCN)NC(=O)[C@H](Cc1ccccc1)NC(=O)[C@H](CCCNC(=N)N)NC(=O)CNC(=O)[C@H](Cc1c[nH]c2ccccc12)NC(=O)[C@H](CCCNC(=N)N)NC(=O)CNC(=O)[C@H](CCCNC(=N)N)NC(=O)[C@@H](N)[C@@H](C)O)[C@@H](C)CC)[C@@H](C)CC)[C@@H](C)CC)[C@@H](C)O)C(=O)NCC(=O)O |  | ATCC 43823 | highest concentration 50 µM | 0.3 µM |
| CC[C@H](C)[C@H](NC(=O)[C@H](CC(C)C)NC(=O)[C@H](CC(C)C)NC(=O)[C@H](CC(C)C)NC(=O)[C@@H](NC(=O)[C@@H](NC(=O)[C@H](CCCNC(=N)N)NC(=O)[C@H](CCCNC(=N)N)NC(=O)[C@H](CCCNC(=N)N)NC(=O)[C@H](CCCNC(=N)N)NC(=O)[C@H](CC(C)C)NC(=O)[C@H](CCCNC(=N)N)NC(=O)[C@H](CO)NC(=O)[C@@H](N)CO)[C@@H](C)CC)C(C)C)C(=O)N[C@@H](CO)C(=O)N[C@@H](CCCNC(=N)N)C(=O)N[C@@H](CCCNC(=N)N)C(=O)N[C@@H](CCCNC(=N)N)C(=O)N[C@@H](CCCNC(=N)N)C(N)=O | broth microdilution | ATCC 13883 | highest value reported | 4 µM |
| CC[C@H](C)[C@H](NC(=O)[C@H](Cc1ccc(O)cc1)NC(=O)[C@@H](NC(=O)[C@H](Cc1c[nH]c2ccccc12)NC(=O)[C@@H]1CCCN1C(=O)[C@@H](NC(=O)[C@H](C)N)[C@@H](C)CC)[C@@H](C)CC)C(=O)N[C@@H](Cc1ccc(O)cc1)C(=O)N[C@@H](CCCNC(=N)N)C(=O)N[C@@H](CC(C)C)C(=O)N[C@@H](CC(C)C)C(=O)N[C@@H](CCCNC(=N)N)C(=O)N[C@@H](CCCCN)C(=O)NCC(=O)O | broth microdilution | ATCC 700603 | 18 h, 37 °C | 15 µM |
| CN(C)[C@@H]1C(O)=C(C(N)=O)C(=O)[C@@]2(O)C(O)=C3C(=O)c4c(O)cncc4C[C@H]3C[C@@H]12.Cl.Cl |  | tet(A)-carrying |  | > 32 µg/mL |
| CC(=O)N[C@@H](CCCCN)C(=O)N[C@@H](CCCCN)C(=O)N[C@@H](CC(C)C)C(=O)N[C@@H](C)C(=O)N[C@@H](CCCCN)C(=O)N[C@@H](CC(C)C)C(=O)N[C@@H](CC(C)C)C(=O)N[C@@H](CCCCN)C(=O)N[C@@H](CCCCN)C(=O)N1CCC[C@H]1C(=O)N[C@@H](CC(C)C)C(=O)N[C@@H](CCCCN)C(=O)N[C@@H](CC(C)C)C(=O)N[C@@H](CC(C)C)C(=O)N[C@@H](CCCCN)C(N)=O | broth microdilution | ATCC 700603 | 18 h, 37 °C, compound alone | > 80 µM |
| CC[C@H](C)[C@H](N)C(=O)N[C@@H](CC(C)C)C(=O)NCC(=O)N[C@@H](CCCNC(=N)N)C(=O)N[C@H](C(=O)N[C@@H](Cc1c[nH]c2ccccc12)C(=O)N[C@@H](CCCCN)C(=O)NCC(=O)N[C@H](C(=O)N[C@@H](CCCCN)C(=O)N[C@@H](CC(=O)O)C(=O)N[C@H](C(=O)N[C@@H](CC(C)C)C(N)=O)[C@@H](C)CC)[C@@H](C)CC)[C@@H](C)CC | broth microdilution | ATCC 27736, Mueller-Hinton broth | 16 h, 37 °C | 50 µM |
| CC(C)OCCNc1nc(Cl)c2c(c1O)C(=O)C1=C(O)[C@]3(O)C(=O)C(C(N)=O)=C(O)[C@@H](N(C)C)[C@@H]3C[C@@H]1C2.Cl.Cl.Cl |  | tet(A)-carrying |  | > 32 µg/mL |
| CC(=O)N[C@@H](CCCCN)C(=O)N[C@@H](CCCCN)C(=O)N[C@@H](CC(C)C)C(=O)N[C@@H](CC(C)C)C(=O)N[C@@H](CCCCN)C(=O)N[C@@H](CC(C)C)C(=O)N[C@@H](CC(C)C)C(=O)N[C@@H](C)C(=O)N[C@@H](CCCCN)C(=O)N1CCC[C@H]1C(=O)N[C@@H](CC(C)C)C(=O)N[C@@H](CCCCN)C(=O)N[C@@H](CC(C)C)C(=O)N[C@@H](CC(C)C)C(=O)N[C@@H](CCCCN)C(N)=O | broth microdilution | ATCC 700603 | 18 h, 37 °C, compound alone | > 80 µM |
| CO[C@@]1(NC(=O)Cc2cccs2)C(=O)N2C(C(=O)O)=C(COC(N)=O)CS[C@@H]21 | broth microdilution | ATCC 43816 acrAB overexpressor |  | 4 µg/mL |
| NCC[C@H](O)C(=O)N[C@@H]1C[C@H](N)[C@@H](O[C@H]2O[C@H](CN)[C@@H](O)[C@H](O)[C@H]2O)[C@H](O)[C@H]1O[C@H]1O[C@H](CO)[C@@H](O)[C@H](N)[C@H]1O | broth microdilution | KPC-25 producing |  | > 128 µg/mL |

Repeated from above:
| Structure (SMILES) | test | system | setting | MIC |
| --- | --- | --- | --- | --- |
| CC(C)OCCNc1nc(Cl)c2c(c1O)C(=O)C1=C(O)[C@]3(O)C(=O)C(C(N)=O)=C(O)[C@@H](N(C)C)[C@@H]3C[C@@H]1C2.Cl.Cl.Cl |  | tet(A)-carrying |  | > 32 µg/mL |
